Measured values of several laboratories.
Lines come from different studies, so protocols differ.

`NCCCS(=O)(=O)O` has a median Tmax of 1 h (human, plasma; oral, 100 mg loose-filled capsule, single dose).
For `CN1C(=O)[C@@H](NC(=O)c2nnc(Cc3ccccc3)[nH]2)COc2ccccc21`, the median Tmax was 2 h (human, male, whole blood; oral, 40 mg single dose, fasted).
`CCCCOC(=O)N1CCN(C(=O)[C@H](CP(=O)(O)O)NC(=O)c2cc(N3CC[C@H](OC)C3)nc(-c3ccccc3)n2)CC1` has a median Tmax of 0.5 h (healthy human, plasma; subcutaneous, 4 mg, placebo i.v.).
`N#Cc1ccnc(N2C(=O)CC[C@H]2C(=O)N(c2cncc(F)c2)[C@H](C(=O)NC2CC(F)(F)C2)c2ccccc2Cl)c1` has a median Tmax of 3.92 h (human patients; oral, 500 mg once daily, cycle 1 day 14, together with: induction chemotherapy).
For `CC[C@@H]1C(=O)N(C)c2cnc(Nc3ccc(C(=O)N[C@H]4CC[C@H](N5CCN(CC6CC6)CC5)CC4)cc3OC)nc2N1C(C)C`, the median Tmax was 1.03 h (human, plasma; intravenous infusion, 250 mg over 2 h, first infusion).
`Cn1c(-c2ccc(C(N)=O)cc2F)nnc1C(C)(C)Oc1c(F)cc(Cl)cc1F` gave a median Tmax of 0.5 h (young non-Japanese humans, plasma; oral, 0.7 mg, day 1, single dose).
For `CC(C)(O)CNc1nc(Nc2ccnc(C(F)(F)F)c2)nc(-c2cccc(C(F)(F)F)n2)n1`, the median Tmax was 4.04 h (human patients; oral, 100 mg once daily, cycle 1 days 1 and 8, together with: induction chemotherapy).
`CC(C)[C@H](N)C(=O)NCCCS(=O)(=O)O` gave a median Tmax of about 2 h (human, plasma; oral, 265 mg tablet once daily, day 1, fed, multiple dosing).

Some of these lines once more:
`NCCCS(=O)(=O)O` has a median Tmax of 1 h (human, plasma; oral, 100 mg loose-filled capsule, single dose).
